Measured values gathered from unrelated publications.
Every numbered part comes from another study and shows a few of its results, in no order. Substitutions count along the parent as printed.

Series 1
Target: CRIPT, C-terminal peptide
Method: DHFR complementation, deep sequencing
Matrix: yeast
Setting: single substitutions, model-inferred values
Reference: wild type
Direction: higher = weaker binding
Measurement: binding free energy change
Starting sequence: ERBIN, PDZ domain 1 (human); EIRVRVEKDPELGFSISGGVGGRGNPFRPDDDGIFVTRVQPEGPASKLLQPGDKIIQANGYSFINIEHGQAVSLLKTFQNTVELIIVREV; partner TKNYKQTSV
Variant = I16M; value = 0.627 kcal/mol
Variant = Q79L; value = 0.0649 kcal/mol
Variant = V90T; value = 0.0265 kcal/mol
Variant = V4T; value = 0.351 kcal/mol
Variant = G18T; value = 1.63 kcal/mol
Variant = V82R; value = 1.62 kcal/mol
Variant = H68Y; value = 1.34 kcal/mol
Variant = P26G; value = 0.71 kcal/mol
Variant = V36T; value = 0.724 kcal/mol
Variant = G33Y; value = 1.49 kcal/mol
Variant = E1V; value = 0.156 kcal/mol
Variant = S46I; value = 0.145 kcal/mol
Variant = D31S; value = 0.316 kcal/mol
Variant = E42D; value = -0.0034 kcal/mol
Variant = K54Y; value = 0.842 kcal/mol
Variant = I34M; value = 0.33 kcal/mol
Variant = Q40M; value = 0.134 kcal/mol
Variant = L84S; value = 1.4 kcal/mol
Variant = F35H; value = 0.724 kcal/mol
Variant = G24H; value = 0.689 kcal/mol
Variant = V87T; value = 0.044 kcal/mol

Series 2
Target: Fragile X messenger ribonucleoprotein 1, C-terminal low-complexity region (Fmr1, Mus musculus, UniProt P35922)
Method: RNA Bind-n-Seq
Form: RNA
Matrix: in vitro
Tested at: 200 nM
Setting: whole 134-nt RNA, ends assumed
Together with: 150 mM KCl
Reference: input library
Direction: higher = stronger binding
Measurement: log2 enrichment
All sequences stand within: GGGAGUUCUACAGUCCGACGAUC … UGGAAUUCUCGGGUGUCAAGG
Strand = CAAACUUAAAGUCUCCCUUGCUCGGAAGAAGCCUCCAAUGAACAGUAUGCGGGGUGGUCUGCCACCCCGUGAGGGCAGAGGCAUGCCACC; value = -0.12
Strand = UCAAGUCCUGUGCUACACAUCGUAUGUACCGAAUCGGAAAGGGAAAGGAAAGGGGAAAGUAUUAUGUUACGCCGUUCGGAUCUGCACUUC; value = -0.55
Strand = UCCUGUGCUACACAUCGUAUGUACCGAAUCGGGUUUUUUUGGGUUUGGGUUUUUUUGGGAAAGUAUUAUGUUACGCCGUUCGGAUCUGCA; value = 0.0511
Strand = ACCAUGCAGGUGGGCAUCUUUGGGUAGUGGGGCAAGGGGGGGAUAGGGAGGGGGGUAACACUUUGGGAACAGGUGGUCCCAGGUCGUUUC; value = 0.755
Strand = CUCAAGUCCUGUGCUACACAUCGUAUGUACCGAAUCGGGGUUGGGUUGGUUGGGAAAGUAUUAUGUUACGCCGUUCGGAUCUGCACUUCC; value = 0.987
Strand = CCUCAAGUCCUGUGCUACACAUCGUAUGUACCGAAUCGGGGAGGGGAGGGAGGAAAGUAUUAUGUUACGCCGUUCGGAUCUGCACUUCCA; value = 0.58
Strand = UUUACAAAUAUGCCCAAGACUUCUUGGUGGCUAUUGCAGAGCCAGUGUGCCGACCAACCCAUGUGCAUGAGUACAAACUAACUGCCUACU; value = 0.237
Strand = UCCUGUGCUACACAUCGUAUGUACCGAAUCGGGGAAAAAAAGGGGAAAAAGGGGUGGGGAAAGUAUUAUGUUACGCCGUUCGGAUCUGCA; value = 0.565
Strand = UGGGAGGUGGAUUUUGUUUAUUUUUUUAGCUCAUUUCCAGGGGUGGGAAUUUUUUUUUAAUAUGUGUCAUGAAUAAGGUUGUUUUUGAAA; value = 0.479

Series 3
Target: Interferon regulatory factor 5, full length, phosphomimetic (IRF5, Homo sapiens, UniProt Q13568-2, residues 1-514, K96S/S451D/S453D/S456D/S462D)
Method: protein-binding microarray
Form: double-stranded DNA, one strand shown
Matrix: in vitro
Tested at: 250 nM
Setting: 60-bp whole probe
Together with: salmon DNA 0.4 mg/ml
Reference: random background probes
Direction: higher = stronger binding
Measurement: log fluorescence
All sequences stand within: GCCTAGCAC … GTCTTGATTCGCTTGACGCTGCTG
Strand = TTAGGTTACGGGACTGGGTTAGTGCTA; value = -0.121 z-score
Strand = TTAGGACTGCTACTGCTGTAGTGCTAG; value = -0.422 z-score
Strand = GACGGTAGCGGTCTCGGGACGTGCTAG; value = -0.406 z-score
Strand = CTAGATATCGGGACTGGATTAGTGCTA; value = 0.791 z-score
Strand = TCACATACTAATTTCCAACTGTGCTAG; value = 0.637 z-score
Strand = GACGGACTGGGTATCGGGTCGTGCTAG; value = 1.01 z-score
Strand = CTCTTGTTCTCTCTGGCCCTGTGCTAG; value = -0.0131 z-score
Strand = TGAGGTCTCCTTCTCCTTTAGTGCTAG; value = -0.284 z-score
Strand = TTAGGTTGCGGTTTCGGTTAGTGCTAG; value = 8.81 z-score
Strand = GACGATATCAGTCTTGAGACGTGCTAG; value = 0.88 z-score
Strand = TTAGGACTGGGGACTGGGTTGGTGCTA; value = -0.54 z-score
Strand = TTAGGTTACCTTATCCTTTAGTGCTAG; value = 0.038 z-score
Strand = TCATGTCTCTGGCCTGGGACTGTGCTA; value = -0.178 z-score
Strand = TTAGGACTGGACTTTCGGATAGTGCTA; value = 5.22 z-score
Strand = GACGATATCGGGTATCAAGACGTGCTA; value = 2.03 z-score
Strand = GACGGACAGGGGTTTCGGGACGTGCTA; value = 1.39 z-score
Strand = TCAGGTTTCCTTCTCCTTTAGTGCTAG; value = 1.2 z-score
Strand = TTAGGACTGGACCTTCGGTTAGTGCTA; value = 0.522 z-score
Strand = ATAGGTCTCGGTCTCGGTTAGTGCTAG; value = 0.896 z-score

Series 4
Target: CCNE2, cyclin fold, Cln2 fusion (human)
Method: yeast growth competition, sequencing
Matrix: yeast
Setting: weak parent motif
Reference: not given
Direction: higher = stronger binding
Measurement: normalised enrichment score
Starting sequence: CDC6 docking peptide (human); TLKGRRLVFDNQL
Variant = K3V; value = 0.737
Variant = G4V; value = 1.19
Variant = L13G; value = 0.0604
Variant = L13K; value = -0.122
Variant = N11W; value = 0.978
Variant = R6N; value = 0.228
Variant = G4E; value = -0.119
Variant = L13Q; value = 0.868
Variant = V8T; value = 0.29
Variant = V8K; value = 0.257
Variant = L13E; value = 0.4
Variant = N11H; value = 0.572
Variant = Q12L; value = 0.5
Variant = R5A L7A; value = 0.0214
Variant = T1S; value = 0.298
Variant = V8D; value = 0.805
Variant = R5A; value = 0.421
Variant = L2V; value = 0.565
Variant = Q12H; value = 0.337
Variant = R6S; value = -0.0908
Variant = L2W; value = 0.658
Variant = N11F; value = 1.35
Variant = Q12P; value = 0.208
Variant = L7N; value = -0.0915
Variant = F9D; value = -0.495

Some of these lines once more (series 4):
Variant = L13K; value = -0.122
Variant = F9D; value = -0.495
Variant = L7N; value = -0.0915
Variant = R5A L7A; value = 0.0214
